Assay results from different studies.
A part holds a random share of what one study measured. Positions count from the first letter of the parent shown.

Study 1 — technique: protein-binding microarray; molecule type: double-stranded DNA, one strand shown; matrix: in vitro; concentration: 250 nM; notes: 60-bp whole probe; added: salmon DNA 0.4 mg/ml; relative to: random background probes; reading: higher = stronger binding; endpoint: log fluorescence; all sequences stand within: GCCTAGCAC … GTCTTGATTCGCTTGACGCTGCTG
Target: Interferon regulatory factor 5, full length, phosphomimetic (IRF5, Homo sapiens, UniProt Q13568-2, residues 1-514, K96S/S451D/S453D/S456D/S462D)
Strand = GACCGTATCGGGACTGGGGACGTGCTA; result = 0.983 z-score
Strand = TTAGGTCTCTTACTGCTTTAGTGCTAG; result = -0.0341 z-score
Strand = TTAGATATCGGGTTTCGACTAGTGCTA; result = 5.42 z-score
Strand = GACGGTTTCGAAACTGGGGACGTGCTA; result = 5.66 z-score
Strand = TTAGGTTCCCTTTTCGTTTAGTGCTAG; result = 1.81 z-score
Strand = CTCTGCTTCTGTATGGGCATGTGCTAG; result = -0.0166 z-score
Strand = TTTGATATCAGTCTCGATTAGTGCTAG; result = 3.08 z-score
Strand = TCAGCATTCGAATTCAGACTGTGCTAG; result = -0.067 z-score
Strand = TTTACTTTCTATCTCTGTTTGTGCTAG; result = 7.21 z-score
Strand = GGGCACATCTTAACATATGAGTGCTAG; result = -0.392 z-score
Strand = TTAGGTATCGGTTTCCGTTAGTGCTAG; result = 8.38 z-score
Strand = TTAGGTCTCCTTTTACTTTAGTGCTAG; result = 0.2 z-score
Strand = TTAGGAATGGGGACTGGGTTAGTGCTA; result = -0.288 z-score
Strand = GACGATCTCAGTATCAAGACGTGCTAG; result = 0.158 z-score
Strand = GACGGTCTCCGTATCCTGACGTGCTAG; result = -0.153 z-score
Strand = GATGGACTGGGGTTTCGGGACGTGCTA; result = 1.18 z-score

Study 2 — technique: protein binding microarray; molecule type: double-stranded DNA, one strand shown; matrix: in vitro; concentration: not given; relative to: not given; reading: higher = stronger binding; endpoint: E-score
Target: Histone acetyltransferase KAT6A, winged helix 2, GST fusion (KAT6A, Homo sapiens, UniProt Q92794, residues 85-181)
Notes: 8-mer, flanks averaged, mean of 2 arrays, mostly near background
Residues (chain): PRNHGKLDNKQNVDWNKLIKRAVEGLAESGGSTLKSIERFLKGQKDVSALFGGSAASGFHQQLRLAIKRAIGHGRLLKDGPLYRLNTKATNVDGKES
Strand = CGGGGGTA; result = -0.0194
Strand = ATGTAGAC; result = -0.103
Strand = AATACATT; result = -0.107
Strand = ATCCCGTA; result = -0.00961
Strand = AGGCAATC; result = 0.028
Strand = ATAACGGA; result = -0.0555
Strand = ATCGCGCA; result = 0.0267
Strand = CGCGAAGC; result = 0.237
Strand = AGCAGCAA; result = 0.0905
Strand = GTCTTGAA; result = 0.00534
Strand = ACGCAGGG; result = 0.227
Strand = CAAGCATA; result = 0.131
Strand = AGGGGATG; result = -0.0141
Strand = AAGTAAAG; result = -0.118
Strand = CCGGTTCG; result = 0.103
Strand = AGGGCTGA; result = -0.017
Strand = CATTTTAC; result = 0.0187
Strand = CGTACTCA; result = -0.227
Strand = CTATCTAC; result = -0.151
Strand = ACGGAAGG; result = 0.00194
Strand = ATTTCTAC; result = 0.017
Strand = CTACGCGA; result = 0.144
Strand = AGGACTAA; result = -0.0783
Strand = ACAATAGA; result = -0.0209

Study 3 — technique: RNA Bind-n-Seq; molecule type: RNA; matrix: in vitro; concentration: 365 nM; relative to: no-protein control; reading: higher = stronger binding; endpoint: RBNS enrichment (R)
Target: RNA binding protein fox-1 homolog 2, RRM domain, GST-SBP tag (RBFOX2, Homo sapiens, UniProt O43251-10, residues 100-194)
Notes: natural RNA segment, single round, ends assumed
All sequences stand within: GGGAGUUCUACAGUCCGACGAUC … UGGAAUUCUCGGGUGCCAA
Residues (chain): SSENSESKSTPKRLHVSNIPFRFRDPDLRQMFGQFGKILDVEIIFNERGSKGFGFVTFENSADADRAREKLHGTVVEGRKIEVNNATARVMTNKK
Strand = CUUCAUAAUGAUUUUAUGUCUUGCUUUAAAGAUAGUACCUGCAGAAUAGUUUUUGAAUACACCCACAUUUUGUACGUUUCCAUGUAAGCUGACAUAGUGUUCUGCCAUGU; result = 0.492
Strand = CAAGUUUUGUAUAAAUAAUAAAGAACUCCUUAUUUUGUAUUACAUCUAAUGCUUCAAGUGUUGCUCUUGGAAAGCUGAUGAUGUCUCUUGUAGAAGAUGGACUCUGAAAA; result = 0.571
Strand = GGAGGACUCCGGUCUUAACUCCCACGCUAACUUUAGCUCAAGUGGAGUUUUCACCGUGGUCAUUUCUACCUCCGGAGCAAGGUGCCAGCGCCAGUACUAGAGCCUGCUUA; result = 0.26
Strand = ACCCCACCUCACCCAGAGCAAACCGUAGGACUGCUCCUAGAAGCAGCUCUGUUGACUUCUCUUGGAACACACCUGAACGCUUUCCUCAUUUCUAACCUGUGCCACCUCUU; result = 0.581
Strand = GUGACUUUAUAAAUACAGUUUUAAAACAUUUCACAUGCAUGGUAGCACGCAGAGGGUUUUGUUGUGGAUGUGUUUGUUUGUUUGUUUGUUUGUUUUAACAUGUUCUUUUA; result = 6.7
Strand = AGCCUUGGAAGGCUGCUUGCUCAUCUCACACCAUGCCUGGGCCAUGCCUUCCUCACCUCUGGAGCAGCAGCUGGCAGGCACAUCUGCCAUUUGUCCUGGAAUUGUCACGG; result = 0.417
Strand = CGCGGAUCAACCAGGCAGAGUUCUGUGGCGCCGCGUGGACAGCCGGAGCAGUUGGCCUGUGCUUGGAGGCCUCAGAUAGACCUGUGACCUGGUCUGGUCAGGCAAUGCCC; result = 0.382
Strand = CUAACCCUCUGCACAGCCCUUCUGGGUGGUCCUCACCAGGUCUCUGAGCUGGGUGGGAGGCCAUCCUGGCGACCACUGCCCAUUCCAUUCACCCCUCACUGUACCUGCCC; result = 0.553
Strand = CUAUAGACUGCCUCCAGCCGCCCUCCAGUGCUGUGGAGAGACUGUCCCCAGCCUGAGGGACUCUCCUCGGGCCCUCGCCUCUCUACCAAGCACAACACUAAUCCUGUUUC; result = 0.249
Strand = AGGUUCCUAUCAGUCCAUAUAAACUCACUGACCAUAUGGUCAGCCUGGACCGGCCUUCUCAGAUGGCCGAAGCAGAUCCAACAUUAUCUUCCAUCUGUUUCCUUCCAUUU; result = 0.189
Strand = AUAGCUGAACUGUGUUUACUGGAAAAAUUCAGAGGCCUAAAGUUUAAAAUAAAAUUUACUUCCGACGUUUUAAUUACAAAUGUUUGCCACAUUAACUUCUCUGAUGCCUU; result = 0.473
Strand = UAUGAAAGACAGCACCUCACUGCUCCUGCAGACACAAGGGCCACCGGGGAGUUCCUGAAAGACUAGUUAGGGACAUUUGCUCAUCUCCUUCUGAGGCCAUCUGCAGAAAG; result = 0.411

Study 4 — technique: DHFR PCA, deep sequencing; matrix: yeast; added: (+)-ABA 17 µM; relative to: wild-type fitted maximum; reading: higher = stronger binding; endpoint: relative binding score
Target: ABI1, truncated, D143A, DHFR fusion (Arabidopsis thaliana)
Notes: methotrexate growth selection, single substitutions
Parent: PYL1, truncated, DHFR fusion (Arabidopsis thaliana); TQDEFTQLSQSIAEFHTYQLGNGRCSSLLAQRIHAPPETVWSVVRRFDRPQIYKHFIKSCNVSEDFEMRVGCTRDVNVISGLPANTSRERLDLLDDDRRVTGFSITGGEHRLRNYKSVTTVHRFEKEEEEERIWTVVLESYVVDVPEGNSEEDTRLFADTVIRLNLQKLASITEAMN; partner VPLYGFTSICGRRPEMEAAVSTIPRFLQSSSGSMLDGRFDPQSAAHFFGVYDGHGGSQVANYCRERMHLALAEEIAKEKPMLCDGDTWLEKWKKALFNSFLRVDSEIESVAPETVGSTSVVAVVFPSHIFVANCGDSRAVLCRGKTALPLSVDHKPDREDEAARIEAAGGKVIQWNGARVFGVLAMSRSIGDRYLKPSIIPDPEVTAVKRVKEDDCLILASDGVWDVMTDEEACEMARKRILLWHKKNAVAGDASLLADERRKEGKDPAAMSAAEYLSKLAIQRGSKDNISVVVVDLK
Substitution = V70T; result = 59.3%
Substitution = F47D; result = -6.02%
Substitution = E139Q; result = 83.7%
Substitution = V137K; result = 9.38%
Substitution = E64I; result = 62.1%
Substitution = M176H; result = 90.6%
Substitution = T1Y; result = 81%
Substitution = I57V; result = 81.4%
Substitution = G108C; result = 18.5%
Substitution = W41Y; result = 1.69%
Substitution = S26F; result = 62.4%
Substitution = T39G; result = 49.1%
Substitution = E89T; result = 1.75%
Substitution = G148N; result = 63.5%
Substitution = N177K; result = 77.6%

Study 5 — target: NFE2L3, bZIP domain (human); technique: DHFR protein complementation; matrix: yeast; relative to: wild-type JUN-FOS pair; reading: higher = stronger binding; endpoint: binding fitness
Notes: single substitutions, most at no-binding floor
Parent: JUN, bZIP domain (human); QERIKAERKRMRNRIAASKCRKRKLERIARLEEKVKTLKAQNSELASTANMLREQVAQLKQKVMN; partner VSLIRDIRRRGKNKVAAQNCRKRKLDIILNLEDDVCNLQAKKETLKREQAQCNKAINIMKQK
Substitution = T48H; result = -1.43 natural log
Substitution = V56H; result = -1.49 natural log
Substitution = E32M; result = -1.3 natural log
Substitution = E32N; result = -1.48 natural log
Substitution = K39Q; result = -1.39 natural log
Substitution = N42V; result = -1.45 natural log
Substitution = V35P; result = -1.52 natural log
Substitution = R53M; result = -1.59 natural log
Substitution = E33G; result = -1.51 natural log
Substitution = E33H; result = -1.54 natural log
Substitution = A57L; result = -1.51 natural log
Substitution = R53V; result = -1.36 natural log
Substitution = L45R; result = -1.54 natural log
Substitution = L31N; result = -1.45 natural log
Substitution = S43W; result = -1.39 natural log
Substitution = S43R; result = -1.38 natural log
Substitution = L52Q; result = -1.49 natural log
Substitution = R30N; result = -1.46 natural log

Study 6 — target: CCNB3, cyclin fold, Cln2 fusion (human); technique: yeast growth competition, sequencing; matrix: yeast; notes: weak parent motif; relative to: not given; reading: higher = stronger binding; endpoint: normalised enrichment score
Parent: MASTL docking peptide (human); PMIAKNLMCELDE; partner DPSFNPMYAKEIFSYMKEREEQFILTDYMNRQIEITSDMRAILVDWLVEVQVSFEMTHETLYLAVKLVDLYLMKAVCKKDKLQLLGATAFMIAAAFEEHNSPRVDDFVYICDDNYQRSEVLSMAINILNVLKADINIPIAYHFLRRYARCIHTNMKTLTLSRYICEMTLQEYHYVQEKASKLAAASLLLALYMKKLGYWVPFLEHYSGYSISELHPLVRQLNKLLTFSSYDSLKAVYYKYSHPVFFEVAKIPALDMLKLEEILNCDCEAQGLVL
Substitution = PMIAKKLMCELDE [N6K]; result = 0.352
Substitution = PMIAKNLMCELKE [D12K]; result = 0.1
Substitution = PMIAKNLMGELDE [C9G]; result = -0.0179
Substitution = PMIAKNLMCLLDE [E10L]; result = 0.434
Substitution = PMIAKNLMTELDE [C9T]; result = -0.0701
Substitution = PMIAKNLRCELDE [M8R]; result = -0.105
Substitution = PMIAKRLMCELDE [N6R]; result = 0.234
Substitution = PMIAKSLMCELDE [N6S]; result = -0.184
Substitution = PMIAKNLTCELDE [M8T]; result = -0.333
Substitution = PMIAKNLFCELDE [M8F]; result = -0.0166
Substitution = PMIAKNLMCNLDE [E10N]; result = -0.00466
Substitution = PMIAKNHMCELDE [L7H]; result = -0.813
Substitution = PMIAKNLMCELSE [D12S]; result = -0.042
Substitution = PMIRKNLMCELDE [A4R]; result = 0.499
Substitution = PMIAKNLMPELDE [C9P]; result = -0.0966
Substitution = PMIAKNLMCSLDE [E10S]; result = -0.314
Substitution = PMIAYNLMCELDE [K5Y]; result = -0.0653
Substitution = PMDAKNLMCELDE [I3D]; result = -0.123
Substitution = PMIAKNLMCCLDE [E10C]; result = 0.0265

Mixed results
Substance = PhoQ, residues 284 288 289 292 302 303 SVHLDV; target = PhoP, residues 12 14 15 18 19 NFCKL (Escherichia coli, UniProt P23836); test = Sort-seq, refers to: YFP reporter; system = E. coli; conditions = PhoQ-PhoP variant library, added: 10 µM Mg2+; scale = relative to: high Mg2+ state, higher = stronger signaling; endpoint = fold induction; result = 14.9
